Experimental data of several laboratories.
Lines come from different studies, so protocols differ. Numbers after ± are the reported error.
Organism: Trypanosoma brucei brucei

O=C(Nc1ccc2c(c1)CN(c1ccc(Cl)cc1)C2=O)N1CCN(c2ccc(F)cc2)CC1  IC50 (parasite growth, resazurin; Squib 427; 3 d): 3700 nM
CC(=O)N[C@@H]1[C@@H](OC(C)=O)[C@H](OC(C)=O)[C@@H](COC(C)=O)O[C@H]1[Se]Cc1ccc([N+](=O)[O-])cc1  viability (bloodstream form; 5 µM, 24 h, 1 % DMSO): ≤ 50%
O=[N+]([O-])c1ccc(/C=N/N=C/c2ccc(O)cc2)o1  IC50 (parasite growth, CellTiter-Glo; GUTat3.1 bloodstream form; 72 h): 3890 ± 2140 nM
Nc1ncnc2c1c(C(F)(F)F)cn2[C@@H]1O[C@H](CO)[C@@H](O)[C@H]1O  EC50 (parasite growth, resazurin; Squib 427; 72 h): 690 ± 110 nM
COC(=O)c1cccc(-c2cc(C)c3ncc(C(N)=O)c(Nc4cccc(OC)c4)c3c2)c1  EC50 (cell growth, Alamar blue; bloodstream form, strain 427; 48 h): 7000 ± 3900 nM
Cc1ccc(N2Cc3cc(NC(=O)N4CCN(c5ccc(F)cc5)CC4)ccc3C2=O)cc1  IC50 (cell growth, resazurin; Squib 427; 3 days): > 64000 nM
O=[N+]([O-])c1ccc(/C=N/N=C/c2ccc(OCc3ccccc3)cc2)o1  IC50 (parasite growth, CellTiter-Glo; GUTat3.1 bloodstream form; 72 h): 500 ± 350 nM
Nc1ncnc2c1ccn2[C@H]1C[C@H](O)[C@@H](CO)O1  EC50 (parasite growth, resazurin; Squib 427; 72 h): 48000 ± 1000 nM
CC(=O)OC[C@H]1O[C@@H]([Se][Se][C@@H]2O[C@H](COC(C)=O)[C@@H](OC(C)=O)[C@H](OC(C)=O)[C@H]2OC(C)=O)[C@H](OC(C)=O)[C@@H](OC(C)=O)[C@@H]1OC(C)=O  glucose consumption reduction (bloodstream form; EC50, 4 h; baseline: vehicle): ~10%
CC(=O)N[C@@H]1[C@@H](OC(C)=O)[C@H](OC(C)=O)[C@@H](COC(C)=O)O[C@H]1[Se]C(=O)c1ccc(C)cc1  viability (bloodstream form; 5 µM, 24 h, 1 % DMSO): 90.4 ± 20.2%
CCOC(=O)C(C)NC(=O)CN1C(=O)S/C(=C\c2ccc(F)cc2)C1=O (stereo not shown)  IC50 (cell viability; GUTat3.1; 72 h): > 64000 nM
CC(=O)N[C@@H]1[C@@H](OC(C)=O)[C@H](OC(C)=O)[C@@H](COC(C)=O)O[C@H]1[Se]Sc1ccccc1  viability (bloodstream form; 5 µM, 24 h, 1 % DMSO): ≤ 50%
O=C(Nc1ccc2c(c1)CN(c1ccc(F)c(F)c1)C2=O)N1CCN(c2ccc(F)cc2)CC1  IC50 (cell growth, resazurin; Squib 427; 3 days): > 64000 nM
Cc1ncnc2c1c(C(F)(F)F)cn2[C@@H]1O[C@H](CO)[C@@H](O)[C@H]1O  EC50 (resazurin; Squib 427; axenic HMI-9 medium): 580 nM
CO[C@H]1O[C@H](COCc2ccccc2)[C@H]([Se][C@@H]2O[C@H](COC(C)=O)[C@@H](OC(C)=O)[C@H](OC(C)=O)[C@H]2NC(C)=O)[C@H](OC(C)=O)[C@H]1OC(C)=O  viability (bloodstream form; 5 µM, 24 h, 1 % DMSO): 97.9 ± 22%
O=C(Nc1ccc2c(c1)CN(c1ccc(Br)cc1)C2=O)N1CCN(c2ccc(F)cc2)CC1  IC50 (parasite growth, resazurin; Squib 427; 3 d): 400 nM
CC(=O)OC[C@H]1O[C@@H]([Se]c2ccc([N+](=O)[O-])cn2)[C@H](OC(C)=O)[C@@H](OC(C)=O)[C@@H]1OC(C)=O  viability (bloodstream form; 5 µM, 24 h, 1 % DMSO): 73.6 ± 2.7%
O=C(Nc1ccc2c(c1)CN(c1ccc(Cl)cc1)C2=O)N1CC[C@H](O)C1  IC50 (parasite growth, resazurin; Squib 427; 3 d): > 64000 nM
COc1cccc(Nc2c(C(N)=O)cnc3c(C)cc(-c4ccc5cnn(C)c5c4)cc23)c1  EC50 (cell growth, Alamar blue; bloodstream form, strain 427; 48 h): 6800 ± 820 nM
O=[N+]([O-])c1ccc(/C=N/N=C/c2ccccc2)o1  IC50 (parasite growth, CellTiter-Glo; GUTat3.1 bloodstream form; 72 h): 3940 ± 2080 nM
CC(=O)OC[C@H]1O[C@@H]([Se]C(=O)c2ccc([N+](=O)[O-])cc2)[C@H](OC(C)=O)[C@@H](OC(C)=O)[C@@H]1OC(C)=O  biosensor oxidation (flow cytometry; bloodstream form, hGrx1-roGFP2; EC50, 1 h; baseline: diamide 500 µM maximum and minimum oxidation): 72%
COc1ccc(/C=N/N=C/c2ccc([N+](=O)[O-])o2)cc1  IC50 (parasite growth, CellTiter-Glo; GUTat3.1 bloodstream form; 72 h): 2680 ± 1370 nM
CCOC(=O)CNC(=O)CN1C(=O)S/C(=C\c2ccc(OC)c(O)c2)C1=O  IC50 (cell viability; GUTat3.1; 72 h): > 64000 nM
CC(=O)N[C@@H]1[C@@H](OC(C)=O)[C@H](OC(C)=O)[C@@H](COC(C)=O)O[C@H]1[Se]c1ccc([N+](=O)[O-])cn1  viability (bloodstream form; 5 µM, 24 h, 1 % DMSO): 93.9 ± 22.6%
Nc1ncnc2c1c(-c1ccccn1)cn2[C@@H]1O[C@H](CO)[C@@H](O)[C@H]1O  EC50 (parasite growth, resazurin; Squib 427; 72 h): 310 ± 60 nM
O=[N+]([O-])c1ccc(/C=N/N=C/c2ccc(O)cc2)s1  IC50 (parasite growth, CellTiter-Glo; GUTat3.1 bloodstream form; 72 h): 330 ± 120 nM
CCOC(=O)C(CC)NC(=O)CN1C(=O)S/C(=C\c2ccc(OC)cc2)C1=O (stereo not shown)  IC50 (cell viability; GUTat3.1; 72 h): > 58000 nM
Cc1ccc(/C=N/N=C/c2ccc([N+](=O)[O-])s2)cc1  IC50 (parasite growth, CellTiter-Glo; GUTat3.1 bloodstream form; 72 h): 2090 ± 1210 nM
Nc1ncnc2c1c(Cl)cn2[C@@H]1O[C@H](CO)C[C@H]1O  EC50 (parasite growth, resazurin; Squib 427; 72 h): 2.1 ± 0.04 nM
O=[N+]([O-])c1ccc(/C=N/N=C/c2ccc(OCc3ccccc3)cc2)s1  IC50 (parasite growth, CellTiter-Glo; GUTat3.1 bloodstream form; 72 h): 4880 ± 4200 nM
O=C(Nc1ccc2c(c1)CN(c1ccc(Cl)cc1)C2=O)N1CC[C@H](F)C1  growth inhibition (cell growth, resazurin; Squib 427; concentration not given, 3 days): inactive
COc1ccc(/C=N/N=C/c2ccc([N+](=O)[O-])s2)cc1  IC50 (parasite growth, CellTiter-Glo; GUTat3.1 bloodstream form; 72 h): 1050 ± 480 nM
Cc1ccc(N2Cc3cc(NC(=O)N4CCN(c5cccc(C(F)(F)F)c5)CC4)ccc3C2=O)cc1  IC50 (parasite growth, resazurin; Squib 427; 3 d): 2400 nM
Nc1ncnc2c1c(Br)cn2[C@@H]1O[C@H](CO)C[C@H]1O  EC50 (parasite growth, resazurin; Squib 427; 72 h): 1.3 ± 0.3 nM
CCOC(=O)C(C)NC(=O)CN1C(=O)N/C(=C\c2ccc(C)cc2)C1=O (stereo not shown)  IC50 (cell viability; GUTat3.1; 72 h): > 57000 nM
CC(=O)OC[C@H]1O[C@@H]([Se]c2ccc([N+](=O)[O-])cc2[N+](=O)[O-])[C@H](OC(C)=O)[C@@H](OC(C)=O)[C@@H]1OC(C)=O  biosensor oxidation (flow cytometry; bloodstream form, hGrx1-roGFP2; EC50, 1 h; baseline: diamide 500 µM maximum and minimum oxidation): 13%
Nc1ncnc2c1c(F)cn2[C@@H]1O[C@H](CO)C[C@H]1O  EC50 (parasite growth, resazurin; Squib 427; 72 h): 2 ± 1 nM

For quick reference, copied from above:
Nc1ncnc2c1ccn2[C@H]1C[C@H](O)[C@@H](CO)O1  EC50 (parasite growth, resazurin; Squib 427; 72 h): 48000 ± 1000 nM
O=[N+]([O-])c1ccc(/C=N/N=C/c2ccc(O)cc2)s1  IC50 (parasite growth, CellTiter-Glo; GUTat3.1 bloodstream form; 72 h): 330 ± 120 nM
CCOC(=O)C(C)NC(=O)CN1C(=O)N/C(=C\c2ccc(C)cc2)C1=O (stereo not shown)  IC50 (cell viability; GUTat3.1; 72 h): > 57000 nM
O=[N+]([O-])c1ccc(/C=N/N=C/c2ccc(OCc3ccccc3)cc2)s1  IC50 (parasite growth, CellTiter-Glo; GUTat3.1 bloodstream form; 72 h): 4880 ± 4200 nM
CC(=O)OC[C@H]1O[C@@H]([Se]C(=O)c2ccc([N+](=O)[O-])cc2)[C@H](OC(C)=O)[C@@H](OC(C)=O)[C@@H]1OC(C)=O  biosensor oxidation (flow cytometry; bloodstream form, hGrx1-roGFP2; EC50, 1 h; baseline: diamide 500 µM maximum and minimum oxidation): 72%
